Results collected from several papers.
Every numbered part comes from another study and shows a few of its results, in no order.
Sequence of UniProt Q02779 (whole entry, looked up): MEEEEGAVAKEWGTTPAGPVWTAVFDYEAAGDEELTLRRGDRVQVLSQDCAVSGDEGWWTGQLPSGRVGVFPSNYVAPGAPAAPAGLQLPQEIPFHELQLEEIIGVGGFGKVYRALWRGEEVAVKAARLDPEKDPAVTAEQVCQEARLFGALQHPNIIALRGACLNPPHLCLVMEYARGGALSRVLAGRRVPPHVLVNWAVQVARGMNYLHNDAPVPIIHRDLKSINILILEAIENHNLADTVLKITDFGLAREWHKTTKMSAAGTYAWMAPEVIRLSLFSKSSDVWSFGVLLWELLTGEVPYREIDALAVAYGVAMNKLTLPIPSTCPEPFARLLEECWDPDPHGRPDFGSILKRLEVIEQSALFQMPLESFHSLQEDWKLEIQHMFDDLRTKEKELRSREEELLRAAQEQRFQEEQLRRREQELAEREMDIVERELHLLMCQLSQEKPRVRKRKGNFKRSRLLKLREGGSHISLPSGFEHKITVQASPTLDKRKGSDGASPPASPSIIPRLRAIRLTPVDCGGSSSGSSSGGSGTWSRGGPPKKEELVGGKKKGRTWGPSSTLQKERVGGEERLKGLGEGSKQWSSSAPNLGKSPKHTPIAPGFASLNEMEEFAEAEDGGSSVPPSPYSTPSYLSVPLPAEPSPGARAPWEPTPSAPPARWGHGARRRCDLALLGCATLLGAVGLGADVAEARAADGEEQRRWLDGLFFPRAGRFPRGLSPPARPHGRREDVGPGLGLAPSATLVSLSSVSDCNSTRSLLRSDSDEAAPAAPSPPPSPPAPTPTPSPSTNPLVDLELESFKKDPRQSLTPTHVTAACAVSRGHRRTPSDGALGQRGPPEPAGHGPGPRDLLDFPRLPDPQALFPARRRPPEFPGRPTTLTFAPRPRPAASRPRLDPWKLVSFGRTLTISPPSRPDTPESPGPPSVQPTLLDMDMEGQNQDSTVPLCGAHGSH
Sequence of UniProt O60674 (whole entry, looked up): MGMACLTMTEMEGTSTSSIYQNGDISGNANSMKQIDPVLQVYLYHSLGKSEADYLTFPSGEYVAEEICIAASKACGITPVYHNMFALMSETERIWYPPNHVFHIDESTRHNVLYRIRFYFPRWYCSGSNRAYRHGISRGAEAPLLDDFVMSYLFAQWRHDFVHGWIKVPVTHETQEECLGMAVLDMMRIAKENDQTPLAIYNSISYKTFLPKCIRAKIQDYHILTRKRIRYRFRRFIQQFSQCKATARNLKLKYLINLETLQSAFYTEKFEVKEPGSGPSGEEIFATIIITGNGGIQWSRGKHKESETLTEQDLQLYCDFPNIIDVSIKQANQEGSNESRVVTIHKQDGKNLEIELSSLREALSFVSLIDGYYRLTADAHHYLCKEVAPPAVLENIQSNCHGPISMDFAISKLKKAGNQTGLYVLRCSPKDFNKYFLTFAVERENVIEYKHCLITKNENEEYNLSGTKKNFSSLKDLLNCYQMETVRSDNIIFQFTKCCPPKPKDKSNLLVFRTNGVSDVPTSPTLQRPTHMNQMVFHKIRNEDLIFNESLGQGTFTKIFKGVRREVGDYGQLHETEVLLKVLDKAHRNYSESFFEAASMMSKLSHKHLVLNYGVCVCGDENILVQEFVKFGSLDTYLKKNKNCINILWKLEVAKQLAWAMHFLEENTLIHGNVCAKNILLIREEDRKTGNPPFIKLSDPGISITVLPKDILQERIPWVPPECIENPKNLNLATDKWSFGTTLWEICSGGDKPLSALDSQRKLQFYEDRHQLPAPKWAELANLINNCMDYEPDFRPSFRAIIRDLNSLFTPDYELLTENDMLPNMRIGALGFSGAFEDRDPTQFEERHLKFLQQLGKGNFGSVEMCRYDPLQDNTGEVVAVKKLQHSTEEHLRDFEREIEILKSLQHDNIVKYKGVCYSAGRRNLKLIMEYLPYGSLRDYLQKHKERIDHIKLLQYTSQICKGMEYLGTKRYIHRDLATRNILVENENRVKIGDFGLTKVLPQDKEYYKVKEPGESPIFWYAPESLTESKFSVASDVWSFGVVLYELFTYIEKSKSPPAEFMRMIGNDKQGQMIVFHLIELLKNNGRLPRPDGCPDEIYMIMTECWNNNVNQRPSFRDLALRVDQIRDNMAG
Sequence of UniProt P45984 (whole entry, looked up): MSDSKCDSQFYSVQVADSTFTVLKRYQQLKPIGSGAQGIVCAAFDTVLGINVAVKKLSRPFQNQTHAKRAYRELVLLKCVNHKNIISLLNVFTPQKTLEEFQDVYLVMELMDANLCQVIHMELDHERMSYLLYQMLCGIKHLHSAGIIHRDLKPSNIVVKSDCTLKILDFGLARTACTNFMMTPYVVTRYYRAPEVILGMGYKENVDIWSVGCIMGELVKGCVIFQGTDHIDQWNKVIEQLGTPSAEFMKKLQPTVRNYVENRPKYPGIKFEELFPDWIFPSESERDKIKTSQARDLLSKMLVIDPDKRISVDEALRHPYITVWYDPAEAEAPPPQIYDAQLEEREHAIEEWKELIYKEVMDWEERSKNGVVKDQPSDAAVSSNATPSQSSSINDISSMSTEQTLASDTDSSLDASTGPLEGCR

Study 1
Species: mouse
Matrix: microsomes or S9
Tested at: 2 µM
Time: 0.5 h
SMILES	remaining compound [%]
Cn1c(N2CCN(C(=O)c3cc4cc(Cl)ccc4[nH]3)CC2)cc(=O)n(C)c1=O	55
CC1(C)OC(=O)C2(Cc3ccccc3N3CCC(c4ccccc4)CC32)C(=O)O1 (stereo not drawn)	0.239
COc1ccc2[nH]cc(CCN3C(=O)c4[nH]nc(-c5ccco5)c4C3c3cccc(O)c3)c2c1 (stereo not drawn)	3.08
CCC(CC)(CC)NC(=O)C1CCN(S(=O)(=O)CC)CC1	4.68
COCCc1noc(CN2CC[C@H]3[C@H](C2)OCc2cnnn23)n1	96.9
CCN1C(=O)C2(CC(=O)Nc3c2cnn3-c2nc3ccccc3s2)c2cccc(C)c21 (stereo not drawn)	0.0317
CCOc1cc(C(=O)Nc2[nH]nc(C)c2-c2ccc(OC)c(OC)c2)cc(OCC)c1OCC	0.896
CCCn1c(=O)c2c(nc3n2C(C)C(C)=NN3CCCO)n(C)c1=O (stereo not drawn)	12.3
Cc1nc(-c2ccc3c(c2)CCN3C(=O)Cc2c[nH]c3ccccc23)cs1	13.8
CN(CC1COc2ccccc2O1)C(=O)C1CCC(=O)NC1 (stereo not drawn)	80.1
CC(C)Nc1ncc2scc(COc3cccc4ncccc34)c2n1	3.24
CC1CN(C(=O)C2CCC2)C(C)CN1C(=O)C1CCC1 (stereo not drawn)	0.193
Cc1n[nH]c(NC(=O)CCc2ncc(C(C)(C)C)o2)c1Cl	9.96
Cc1cc(NC(=O)NC(CCN(C)C)C(C)(C)C)n(C(C)(C)C)n1 (stereo not drawn)	91.7
CC1c2cc3c(cc2C2(CCCC2)CN1C(=O)c1ccncn1)OCCO3 (stereo not drawn)	0.0263

Study 2
Target: DNA polymerase theta, helicase domain (POLQ, Homo sapiens, UniProt O75417)
Sequence of UniProt O75417 (whole entry, looked up): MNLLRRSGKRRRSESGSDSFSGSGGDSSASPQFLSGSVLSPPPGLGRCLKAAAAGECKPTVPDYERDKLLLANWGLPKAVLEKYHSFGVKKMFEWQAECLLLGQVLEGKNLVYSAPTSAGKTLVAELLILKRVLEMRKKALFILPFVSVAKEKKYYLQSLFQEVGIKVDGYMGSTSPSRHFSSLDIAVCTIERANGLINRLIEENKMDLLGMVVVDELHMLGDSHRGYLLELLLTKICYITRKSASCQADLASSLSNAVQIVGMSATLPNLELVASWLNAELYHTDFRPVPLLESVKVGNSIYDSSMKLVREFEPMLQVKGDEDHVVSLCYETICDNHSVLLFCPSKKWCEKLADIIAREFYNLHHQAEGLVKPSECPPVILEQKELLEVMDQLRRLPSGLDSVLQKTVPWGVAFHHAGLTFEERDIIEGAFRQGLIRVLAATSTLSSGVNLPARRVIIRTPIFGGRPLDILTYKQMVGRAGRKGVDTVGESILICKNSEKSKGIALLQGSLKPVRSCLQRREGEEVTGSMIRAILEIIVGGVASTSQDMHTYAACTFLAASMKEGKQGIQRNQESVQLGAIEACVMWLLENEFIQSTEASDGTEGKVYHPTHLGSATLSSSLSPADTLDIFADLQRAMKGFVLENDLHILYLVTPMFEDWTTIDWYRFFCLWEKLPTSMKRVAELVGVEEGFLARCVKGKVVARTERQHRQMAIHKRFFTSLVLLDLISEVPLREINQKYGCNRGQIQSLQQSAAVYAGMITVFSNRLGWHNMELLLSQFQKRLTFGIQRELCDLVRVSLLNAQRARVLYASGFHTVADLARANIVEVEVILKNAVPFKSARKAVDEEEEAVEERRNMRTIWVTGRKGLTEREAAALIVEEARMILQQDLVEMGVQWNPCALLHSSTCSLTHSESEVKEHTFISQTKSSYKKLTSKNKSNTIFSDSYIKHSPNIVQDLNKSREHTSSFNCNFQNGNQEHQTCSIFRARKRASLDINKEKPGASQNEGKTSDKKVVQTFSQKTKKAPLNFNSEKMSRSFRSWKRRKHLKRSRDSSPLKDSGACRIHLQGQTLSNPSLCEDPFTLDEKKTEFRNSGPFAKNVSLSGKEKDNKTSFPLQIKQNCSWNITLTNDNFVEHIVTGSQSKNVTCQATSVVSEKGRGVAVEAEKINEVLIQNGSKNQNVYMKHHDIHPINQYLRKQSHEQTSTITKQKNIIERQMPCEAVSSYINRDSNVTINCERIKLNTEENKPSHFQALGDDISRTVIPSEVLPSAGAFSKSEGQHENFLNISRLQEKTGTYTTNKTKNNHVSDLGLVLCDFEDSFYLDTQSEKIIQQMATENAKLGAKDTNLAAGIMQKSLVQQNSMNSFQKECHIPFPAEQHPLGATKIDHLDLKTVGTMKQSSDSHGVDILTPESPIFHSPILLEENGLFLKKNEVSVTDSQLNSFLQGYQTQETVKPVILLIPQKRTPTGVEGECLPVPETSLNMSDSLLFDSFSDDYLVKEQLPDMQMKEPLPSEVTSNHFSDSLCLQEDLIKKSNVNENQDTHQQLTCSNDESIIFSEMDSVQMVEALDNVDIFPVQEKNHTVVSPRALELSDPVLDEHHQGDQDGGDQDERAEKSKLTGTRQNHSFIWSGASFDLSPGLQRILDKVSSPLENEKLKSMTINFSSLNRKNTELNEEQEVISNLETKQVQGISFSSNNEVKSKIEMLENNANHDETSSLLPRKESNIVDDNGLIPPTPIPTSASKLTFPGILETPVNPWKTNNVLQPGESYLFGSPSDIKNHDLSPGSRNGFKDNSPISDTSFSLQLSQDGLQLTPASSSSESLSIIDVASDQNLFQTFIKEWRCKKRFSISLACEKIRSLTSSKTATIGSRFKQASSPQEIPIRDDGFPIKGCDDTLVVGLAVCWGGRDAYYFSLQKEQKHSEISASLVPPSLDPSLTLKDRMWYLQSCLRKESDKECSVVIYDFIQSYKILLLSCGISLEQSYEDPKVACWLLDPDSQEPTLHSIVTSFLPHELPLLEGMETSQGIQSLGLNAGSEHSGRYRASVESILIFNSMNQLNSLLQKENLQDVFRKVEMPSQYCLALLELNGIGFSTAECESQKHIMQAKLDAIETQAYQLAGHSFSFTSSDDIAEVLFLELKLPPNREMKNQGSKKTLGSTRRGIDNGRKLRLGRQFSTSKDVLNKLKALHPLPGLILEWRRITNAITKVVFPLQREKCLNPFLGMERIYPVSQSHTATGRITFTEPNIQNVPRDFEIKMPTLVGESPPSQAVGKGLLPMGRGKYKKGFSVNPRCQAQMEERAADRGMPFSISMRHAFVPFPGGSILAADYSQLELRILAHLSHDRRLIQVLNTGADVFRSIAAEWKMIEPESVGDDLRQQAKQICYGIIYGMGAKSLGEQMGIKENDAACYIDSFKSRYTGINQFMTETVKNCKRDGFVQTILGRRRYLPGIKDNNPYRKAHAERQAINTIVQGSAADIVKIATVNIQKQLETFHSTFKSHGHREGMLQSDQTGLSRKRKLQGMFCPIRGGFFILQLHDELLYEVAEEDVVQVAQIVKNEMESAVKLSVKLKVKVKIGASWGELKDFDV
Observed: enzyme activity
Tested at: concentration not given
Setting: without ssDNA
Structure (SMILES)	remaining activity
O=C(Nc1noc2ccccc12)c1ccc(F)cc1	52.8%
N#Cc1c(O)c2c(-c3ccc(-c4ccccc4O)cc3)csc2[nH]c1=O	48.2%
Cc1ccc(NC(=O)CSc2ncc(S(=O)(=O)c3ccc(C(C)C)cc3)c(=O)[nH]2)cc1C	92.1%
COC(=O)[C@]12CCC(C)(C)C[C@H]1[C@H]1C(=O)C=C3[C@@]4(C)C=C(C#N)C(=O)C(C)(C)[C@@H]4CC[C@@]3(C)[C@]1(C)CC2	89.2%
COc1ccc(S(=O)(=O)c2cnc(SCC(=O)Nc3cc(F)ccc3C)[nH]c2=O)cc1Cl	78.8%
Cc1ccc(C(=O)c2cc(O)c(O)c([N+](=O)[O-])c2)cc1	42.4%
CC1=Nc2cc(C(=O)NCCc3ccc(Cl)cc3)ccc2Sc2ccc(C)cc21	62.5%
Cc1ccc(C(=O)Nc2ccc(S(=O)(=O)[O-])c3cc(S(=O)(=O)[O-])cc(S(=O)(=O)[O-])c23)cc1NC(=O)c1cccc(NC(=O)Nc2cccc(C(=O)Nc3cc(C(=O)Nc4ccc(S(=O)(=O)[O-])c5cc(S(=O)(=O)[O-])cc(S(=O)(=O)[O-])c45)ccc3C)c2)c1.[Na+].[Na+].[Na+].[Na+].[Na+].[Na+]	14.5%
N#CSc1cc(SC#N)c(N)nc1N	91.5%
COc1cccc2c1C(=O)c1c(O)c3c(c(O)c1C2=O)C[C@@](O)(C(C)=O)C[C@@H]3O[C@H]1C[C@H](N)[C@H](O)[C@H](C)O1	100%
CCOc1nc2cccc(C(=O)OCc3oc(=O)oc3C)c2n1Cc1ccc(-c2ccccc2-c2noc(=O)[nH]2)cc1	54.6%
COC(=O)c1cc(Cl)ccc1NC(=O)CSc1ncc(S(=O)(=O)c2ccc(Br)cc2)c(=O)[nH]1	90.1%
C[C@H]1[C@H](C)CC[C@]2(C(=O)O)CC[C@]3(C)C(=CC[C@@H]4[C@@]5(C)C[C@@H](O)[C@H](O)[C@@](C)(CO)[C@@H]5CC[C@]43C)[C@H]12	57.2%
O=C(Nc1cc(-c2ccccc2)sc1C(=O)O)c1cccc(F)c1	39.8%
COc1cc(NC(=O)CSc2ncc(S(=O)(=O)c3ccc(Br)cc3)c(=O)[nH]2)cc(OC)c1	96.3%

Study 3
Compound: O=C(O)c1cc(-c2ccc(C3CCNCC3)cc2)c2ccc(-c3ccc(C(F)(F)F)cc3)cc2c1
Observed: cell-free assay
Method: competition with immobilised ligand
Tested at: 1 µM
target	remaining binding [%]
Tyrosine-protein kinase BTK (BTK, Homo sapiens, UniProt Q06187)	96
Ephrin type-A receptor 6 (EPHA6, Homo sapiens, UniProt Q9UF33)	100
Macrophage-stimulating protein receptor (MST1R, Homo sapiens, UniProt Q04912)	100
MAP/microtubule affinity-regulating kinase 3 (MARK3, Homo sapiens, UniProt P27448)	100
Serine/threonine-protein kinase TAO2 (TAOK2, Homo sapiens, UniProt Q9UL54)	100
Dual specificity protein kinase CLK3 (CLK3, Homo sapiens, UniProt P49761)	100
TGF-beta receptor type-2 (TGFBR2, Homo sapiens, UniProt P37173)	100
Activin receptor type-1 (ACVR1, Homo sapiens, UniProt Q04771)	100
Ribosomal protein S6 kinase alpha-1, N-terminal kinase domain (RPS6KA1, Homo sapiens, UniProt Q15418)	100
Tyrosine-protein kinase ABL1, non-phosphorylated (ABL1, Homo sapiens, UniProt P00519, Q252H)	100
Tyrosine-protein kinase ABL1, phosphorylated (ABL1, Homo sapiens, UniProt P00519, F317L)	100
Ephrin type-A receptor 3 (EPHA3, Homo sapiens, UniProt P29320)	100
Rhodopsin kinase GRK7 (GRK7, Homo sapiens, UniProt Q8WTQ7)	85
Mitogen-activated protein kinase kinase kinase 10 (MAP3K10, Homo sapiens, UniProt Q02779)	100
Cyclin-dependent kinase 3 (CDK3, Homo sapiens, UniProt Q00526)	100
Mitogen-activated protein kinase 7 (MAPK7, Homo sapiens, UniProt Q13164)	100
Tyrosine-protein kinase JAK2, JH1 (JAK2, Homo sapiens, UniProt O60674)	100
Mitogen-activated protein kinase 9 (MAPK9, Homo sapiens, UniProt P45984)	100
Serine/threonine-protein kinase D1 (PRKD1, Homo sapiens, UniProt Q15139)	100
Tyrosine-protein kinase ITK/TSK (ITK, Homo sapiens, UniProt Q08881)	100
Serine/threonine-protein kinase Nek9 (NEK9, Homo sapiens, UniProt Q8TD19)	100
Tyrosine-protein kinase ABL1, phosphorylated (ABL1, Homo sapiens, UniProt P00519, T315I)	100
Ephrin type-B receptor 4 (EPHB4, Homo sapiens, UniProt P54760)	100
Phosphatidylinositol 4,5-bisphosphate 3-kinase catalytic subunit alpha isoform (PIK3CA, Homo sapiens, UniProt P42336)	100
Atypical kinase COQ8B, mitochondrial (COQ8B, Homo sapiens, UniProt Q96D53)	100

Study 4
Target: Protein kinase C iota type (PRKCI, Homo sapiens, UniProt P41743)
Observed: enzyme activity
Action: inhibitor
Tested at: 0.5 µM
Baseline: control
Residues (P41743 1-596): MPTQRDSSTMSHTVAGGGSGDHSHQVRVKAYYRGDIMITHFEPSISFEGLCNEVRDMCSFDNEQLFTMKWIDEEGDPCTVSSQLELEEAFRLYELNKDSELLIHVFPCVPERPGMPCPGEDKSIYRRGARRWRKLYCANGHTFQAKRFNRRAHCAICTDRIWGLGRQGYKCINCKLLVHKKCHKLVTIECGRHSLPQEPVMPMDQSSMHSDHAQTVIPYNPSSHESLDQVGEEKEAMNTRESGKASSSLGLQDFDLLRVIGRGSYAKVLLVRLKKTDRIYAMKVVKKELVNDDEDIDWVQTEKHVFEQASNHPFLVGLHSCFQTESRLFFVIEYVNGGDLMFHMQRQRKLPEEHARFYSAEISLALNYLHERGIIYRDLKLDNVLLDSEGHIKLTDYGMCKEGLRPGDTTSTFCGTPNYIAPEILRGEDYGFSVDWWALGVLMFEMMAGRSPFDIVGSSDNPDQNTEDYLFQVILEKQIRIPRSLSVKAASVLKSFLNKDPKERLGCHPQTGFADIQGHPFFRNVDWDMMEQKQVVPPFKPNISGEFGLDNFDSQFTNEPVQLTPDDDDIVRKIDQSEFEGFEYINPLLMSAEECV
SMILES	remaining activity
O=C1Cc2c([nH]c3ccc([N+](=O)[O-])cc23)-c2ccccc2N1	83.3%
Oc1ccc(Nc2nc(-c3ccc(Cl)cc3)cs2)cc1	99.5%
Cc1ccc(NC2=CC(=O)c3sc(C)nc3C2=O)cc1	96.9%
Nc1nc(Nc2ccc(S(N)(=O)=O)cc2)nn1C(=O)c1c(F)cccc1F	87.6%
Cc1cncc2cccc(S(=O)(=O)N3CCCN(C(=O)CN)C[C@@H]3C)c12	87.4%
CC(C)(C)n1nc(Cc2cccc3ccccc23)c2c(N)ncnc21	98.9%
COc1ccc(S(=O)(=O)N(CCO)c2ccccc2CN(C)CC=Cc2ccc(Cl)cc2)cc1	97.5%
O=C1NC(=O)C(c2c[nH]c3ccccc23)=C1c1c[nH]c2ccccc12	96.9%
Nc1nccc(-c2c(-c3ccc(F)cc3)ncn2C2CCNCC2)n1	98.5%
CC(=O)c1ccc(N2CCOCC2)cc1O	96.3%
Nc1ncnc2c1cnn2-c1ccccc1	97.3%
Fc1ccc(-c2nc3n(c2-c2ccncc2)CCS3)cc1	90.9%
CSc1nc(-c2ccnc(N[C@@H](C)c3ccccc3)c2)c(-c2ccc(F)cc2)[nH]1 (racemic)	91.9%
CC[n+]1c(/C=C/N(C)c2ccccc2)n(-c2ccccc2)c2ccc(-c3nc4ccccc4s3)cc21	90.1%
COc1cc(Nc2c(C#N)cnc3cc(OCCCN4CCN(C)CC4)c(OC)cc23)c(Cl)cc1Cl	99.4%
O=S(=O)(NCCNC/C=C/c1ccc(Br)cc1)c1cccc2cnccc12	88.4%
Cc1cc(Nc2nc(-c3ccccc3)nc3ccccc23)n[nH]1	82.6%
NC(=O)c1ccc(N(C(N)=O)c2c(F)cccc2F)nc1-c1ccc(F)cc1F	99.1%
CC#CC(=O)Nc1cc2c(Nc3ccc(F)c(Cl)c3)ncnc2cn1	96.6%
CCc1[nH]c(-c2ccc(OC)cc2)nc1-c1ccncc1	101%
